Experimental data gathered from unrelated publications.
Protocols differ between the studies behind these lines. ± marks the error that the study gave.

Under “remaining parent compound”, `CC(C)Oc1ncnc2c1c(Cl)cn2[C@@H]1O[C@H](CO)[C@@H](O)[C@H]1O` is recorded as at least 50% (bovine liver microsomes; 30 min).
`CSCCC(NC(C)=O)C(=O)O.[Ru+2].c1ccc(-c2cccc(-c3ccccn3)n2)nc1.c1ccc(-c2ccccn2)nc1` has a remaining compound of 100% (water; 24 h, 37 °C).
`CC(C)(O)[C@H]1Cc2cc3ccc(=O)oc3cc2O1` gave a remaining analyte of 97.6 ± 6.8% (spiked rat plasma QC samples; 0.1, 0.5, 5.0 µg/mL, 4 weeks, -20 °C).
For `C=CC(=O)Nc1cc(Nc2nccc(-c3cn(C)c4ccccc34)n2)c(O)nc1N(C)CCN(C)C`, “remaining parent compound” read 86% (LC-MS; human liver microsomes; 3 µM, 60 min, with: ticlopidine 24 µM; baseline: no inhibitor).
`CCCC(CCC)NC(=O)c1ccc(O)c(OC)c1`: “remaining parent compound” 81.1% (rat liver microsomes; 1.0 µM, 60 min, pH 7.4, without NADPH).
For `CC(C)C[C@H](NC(=O)[C@@H]1CCCN1C(=O)[C@H](CCCCNC(=O)CN1CCN(CC(=O)O)CCN(CC(=O)O)CCN(CC(=O)O)CC1)NC(=O)CC[C@@H]1NC(=O)[C@@H](Cc2ccccc2)NC(=O)[C@H](CC(=O)O)NC(=O)CNC(=O)[C@H](CCCNC(=N)N)NC1=O)C(=O)NCC(=O)N[C@H](C(=O)N[C@@H](CCCNC(=N)N)C(=O)N[C@@H](Cc1ccc(O)cc1)C(=O)O)C(C)C` [copper-64 labelled], “remaining intact peptide” read 94% (radio-HPLC; rat serum; time not given, 37 °C, with: ilomastat 0.73 mM).
`[11CH3]Oc1ccc(Cc2cn[nH]c2)nc1-c1cccc([N+](=O)[O-])c1` has a remaining parent of 97.2% (rat plasma in vitro; 30 min, room temperature).
Under “remaining parent compound”, `CCCC(CCC)NC(=O)c1ccc(OC)c(O)c1` is recorded as 94.9% (rat liver microsomes; 1.0 µM, 60 min, pH 7.4, without NADPH).
`COc1cc(NC(C)=O)c2c(c1O)-c1c(OC)c(OC)cc3c1C(C2)N(C)CC3` (centres unmarked) gave a remaining compound of 115 ± 2.8% (rat brain homogenate; 0.5 µg/mL, 4 h, room temperature, short-term storage).
`Cn1cc(-c2ccnc(N)n2)c2ccccc21`: “remaining parent compound” 127% (LC-MS; human liver microsomes; 3 µM, 60 min, with: α-naphthoflavone 2 µM; baseline: no inhibitor).
With `C=C1C[C@@]23CC[C@H]4[C@@](C)(CCC[C@@]4(C)C(=O)O[C@@H]4O[C@H](CO)[C@@H](O)[C@H](O)[C@H]4O)[C@@H]2CC[C@]1(O[C@@H]1O[C@H](CO[C@H]2O[C@H](CO)[C@@H](O)[C@H](O)[C@H]2O)[C@@H](O)[C@H](O)[C@H]1O[C@@H]1O[C@H](CO)[C@@H](O)[C@H](O)[C@H]1O)C3` the remaining concentration was over 90% (aqueous solutions; range over 1 to 2% w/v, 1 months, 25 °C; baseline: initial).
For `CN(Cc1ccc(F)cc1)Cc1cc(=O)oc2cc(O)ccc12`, “remaining intact compound” read over 99% (HepG2 cell medium; 0.5 mM, 120 min).
`CNC(=O)c1ccc(N2CCN(Cc3ccc4nc(C)c(=O)[nH]c4c3F)CC2)c([18F])n1` gave a remaining parent of over 95% (non-human primate liver microsomes; 90 min).
`C=CC(=O)Nc1cc(Nc2nccc(-c3cn(C)c4ccccc34)n2)c(OCC(F)(F)F)nc1N(C)CCN(C)C`: “remaining parent compound” 61% (LC-MS; human liver microsomes; 3 µM, 60 min, with: ticlopidine 24 µM; baseline: no inhibitor).
Under “remaining intact peptide”, `CC[C@H](C)[C@@H]1NC(=O)[C@H](CCCCN)NC(=O)[C@H](CCCCN)NC(=O)[C@H](Cc2ccc(O)cc2)NC(=O)[C@H](CC(C)C)NC(=O)[C@@H]2CCCN2C(=O)CNC(=O)CNC(=O)[C@@H](NC(=O)CN)CSSC[C@@H](C(=O)N[C@@H](CCC(=O)O)C(=O)N[C@@H](CO)C(N)=O)NC(=O)[C@H](CC(C)C)NC(=O)[C@H](CCCCN)NC(=O)[C@H](CCCCN)NC(=O)[C@H]([C@@H](C)CC)NC(=O)[C@H]([C@@H](C)CC)NC(=O)[C@H](CCCCN)NC(=O)[C@H](CCCCN)NC(=O)[C@H](Cc2ccc(O)cc2)NC(=O)[C@H](CC(C)C)NC(=O)[C@@H]2CCCN2C(=O)[C@H](C)NC(=O)CNC(=O)CNC(=O)[C@H](CO)NC(=O)CNC(=O)CNC(=O)[C@H](CO)NC(=O)[C@H](CCC(=O)O)NC(=O)[C@H](CC(C)C)NC(=O)[C@H](CC(C)C)NC(=O)[C@H](CCCCN)NC(=O)[C@H](CCCCN)NC(=O)[C@H]([C@@H](C)CC)NC1=O` is recorded as 53.7 ± 3.9% (25% human serum; 50 µM, 24 h; baseline: 0 h control).
`NC(=O)CNC(=O)[C@@H]1CCCN1C(=O)[C@@H]1CCCN1C(=O)[C@@H]1C[C@@H](O)CN1C(=O)[C@@H]1C[C@@H](O)CN1C(=O)CNC(=O)CNC(=O)[C@@H]1CCCN1C(=O)[C@@H]1C[C@@H](O)CN1C(=O)[C@@H]1C[C@@H](O)CN1C(=O)CNC(=O)[C@@H]1CCCN1C(=O)[C@@H]1CCCN1C(=O)[C@@H]1C[C@@H](O)CN1C(=O)CNC(=O)[C@@H]1C[C@@H](O)CN1C(=O)CNC(=O)[C@@H]1C[C@@H](O)CN1C(=O)[C@@H]1CCCN1C(=O)[C@@H]1C[C@@H](O)CN1C(=O)[C@@H]1CCCN1C(=O)CNC(=O)[C@@H]1CCCN1C(=O)CNC(=O)[C@@H]1C[C@@H](O)CN1C(=O)CNC(=O)[C@@H]1CCCN1`: “remaining intact peptide” 76.9% (RP-HPLC; 25% mouse serum in PBS; 50 µM, 24 h, 37 °C; baseline: zero time point).
`O=C([O-])CN1CCN(CC(=O)[O-])CCN(CC(=O)NCCc2ccc3c(c2)C2C=CCC2C(c2cc4c(cc2Br)OCO4)N3)CCN(CC(=O)[O-])CC1.[111In+3]` (centres unmarked): “remaining intact compound” over 90% (mouse plasma; up to 4 days, 37 °C, In(III) complex).
For `C=CC(=O)Nc1cc(Nc2nccc(-c3cn(C)c4ccccc34)n2)c(OCC(F)(F)F)nc1NCCN(C)C`, “remaining parent compound” read 58% (LC-MS; human liver microsomes; 3 µM, 60 min, with: sulfaphenazole 6 µM; baseline: no inhibitor).
For `CCCC1OC2CC3C4CCC5=CC(=O)C=CC5(C)C4C(O)CC3(C)C2(C(=O)COC(=O)CN)O1` (centres unmarked), the remaining conjugate was 76.2% (aqueous buffer; 200 µg/mL, 48 h, pH 1.2, 37 °C).
`C=CC(=O)Nc1cc(Nc2nccc(-c3cn(C)c4ccccc34)n2)c(OCC(F)(F)F)nc1NC`: “remaining parent compound” 81% (LC-MS; human liver microsomes; 3 µM, 60 min, with: α-naphthoflavone 2 µM; baseline: no inhibitor).
Under “remaining intact compound”, `O=C([O-])CN1CCN(CC(=O)[O-])CC(Cc2ccc(NC(=S)NCCOCCOCCOCCOCCOCCOCCOCCNC(=O)CCCC(=O)NCc3ccc(-c4nncnn4)cc3)cc2)N(CC(=O)[O-])CC1.[64Cu+2]` (centres unmarked) is recorded as 87 ± 1.3% (PBS; 2 h, pH 7.4, 37 °C).
`C=CC(=O)Nc1cc(Nc2nccc(-c3cn(C)c4ccccc34)n2)c(OCC(F)(F)F)nc1N(C)CCNC`: “remaining parent compound” 32% (LC-MS; human liver microsomes; 3 µM, 60 min, with: quercetin 20 µM; baseline: no inhibitor).
`NCCCC[C@H](N)C(=O)N1CCC[C@H]1C(=O)NCC(=O)NCC(=O)O` has a remaining peptide of 39% (diketopiperazine formation, ESI-MS; 1-propanol; 5 µM, 90 min, 70 °C, 0.5% acetic acid; baseline: initial signal).
